Measurements pooled from the literature.
Parts stem from different laboratories: compare values within a part only.

Sample 1 — technique: protein-binding microarray; molecule type: double-stranded DNA, one strand shown; matrix: in vitro; tested at: 2200 nM top; notes: 60-bp whole probe; added: salmon DNA 0.4 mg/ml; baseline: random background probes; direction: higher = stronger binding; all sequences stand within: GCCTAGCAC … GTCTTGATTCGCTTGACGCTGCTG
Target: Interferon regulatory factor 7, full length, phosphomimetic (IRF7, Homo sapiens, UniProt Q92985, residues 1-503, S471D/S472D/S475D/S476D/S477D/S483D/S484D/S487D)
Target sequence (chain): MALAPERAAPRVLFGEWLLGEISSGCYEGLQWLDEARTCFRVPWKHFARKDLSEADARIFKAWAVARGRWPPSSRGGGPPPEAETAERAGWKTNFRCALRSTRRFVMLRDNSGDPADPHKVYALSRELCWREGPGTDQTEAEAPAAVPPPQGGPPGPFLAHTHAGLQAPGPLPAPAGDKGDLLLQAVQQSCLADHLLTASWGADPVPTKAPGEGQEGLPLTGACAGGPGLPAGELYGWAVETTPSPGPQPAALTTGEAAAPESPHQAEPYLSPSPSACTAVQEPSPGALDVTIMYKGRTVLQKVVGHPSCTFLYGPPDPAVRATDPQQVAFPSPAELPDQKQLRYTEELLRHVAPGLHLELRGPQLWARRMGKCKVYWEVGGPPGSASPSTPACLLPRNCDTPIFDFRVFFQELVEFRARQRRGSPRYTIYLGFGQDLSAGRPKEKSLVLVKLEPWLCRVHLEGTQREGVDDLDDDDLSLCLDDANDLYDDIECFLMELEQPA
Strand | fitted relative affinity [z-score]
GACGGACTGGGTATCTGGACGTGCTAG | -0.764
GACGTACTGGGGTTTCGGGACGTGCTA | 1.17
TGAGAACTGAGTCTCGATTAGTGCTAG | -0.156
TCAAGCTTCCATTTTCTACTGTGCTAG | 1.97
TTAGATTTCCGTCTCGATTAGTGCTAG | 1.3
TTAGGTATCGGGACTGGGGTAGTGCTA | -0.211
TTAGATATCAGTTTCAATTAGTGCTAG | 0.91

Sample 2 — technique: protein binding microarray; molecule type: double-stranded DNA, one strand shown; matrix: in vitro; tested at: not given; baseline: not given; direction: higher = stronger binding
Target: Histone acetyltransferase KAT6A, winged helix 2, GST fusion (KAT6A, Homo sapiens, UniProt Q92794, residues 85-181)
Notes: 8-mer, flanks averaged, mean of 2 arrays, mostly near background
Residues (chain): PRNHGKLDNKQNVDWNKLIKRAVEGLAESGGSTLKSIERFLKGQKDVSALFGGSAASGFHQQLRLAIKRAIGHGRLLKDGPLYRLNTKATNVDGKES
Strand | E-score
GTCGAACA | 0.196
TACGCACA | 0.00197
AAATGCAA | 0.0382
AGGTTATA | -0.206
ACTCGCTC | 0.192
AGGATTTA | -0.0088
AGGATGGG | 0.0386

Sample 3 — technique: protein-binding microarray; molecule type: double-stranded DNA, one strand shown; matrix: in vitro; tested at: 0.8 µM; notes: whole 60-bp probe, no competitor; direction: higher = stronger binding; all sequences stand within: … GTCTTGATTCGCTTGACGCTGCTG
Target: Centromere-binding protein 1, full length, N-terminal tag (CBF1, Saccharomyces cerevisiae, UniProt P17106, residues 1-351)
Sequence of UniProt P17106 (whole entry, looked up): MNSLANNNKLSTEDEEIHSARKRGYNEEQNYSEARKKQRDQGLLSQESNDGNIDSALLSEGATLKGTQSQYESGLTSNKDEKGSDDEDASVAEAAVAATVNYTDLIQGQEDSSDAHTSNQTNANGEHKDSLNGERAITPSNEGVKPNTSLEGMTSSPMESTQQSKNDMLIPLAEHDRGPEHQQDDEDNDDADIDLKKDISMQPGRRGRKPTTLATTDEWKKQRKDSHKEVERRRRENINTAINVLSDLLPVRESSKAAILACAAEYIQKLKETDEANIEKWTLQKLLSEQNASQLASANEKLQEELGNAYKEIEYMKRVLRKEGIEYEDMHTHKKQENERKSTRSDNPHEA
Strand | fluorescence intensity [a.u.]
CTAGCAGTCTAAAAACACACGTGTATGTTTTTTTTC | 5640
GAACGCCCCTTGACGGTGGTGGTATATATTAGGTAG | 497
GAATATAATTGACAGCACGAGGAGAAACAAAATTAG | 817
CTAGTTCTTGGGCACCTGATCTCAAATTGCAAGTTC | 3910
CCTAACTACTATAGTCATCTGACATAGCTTCGTACA | 1430
GAATGACGAATCAACGTGATAATTGTGTAACCGTAG | 1010

Other studies, line by line
Substance | target | assay | test system | setting | how to read | measurement | result
PhoQ, residues 284 288 289 292 302 303 GANMMA | PhoP, residues 12 14 15 18 19 NHTVL (Escherichia coli, UniProt P23836) | Sort-seq, measured: YFP reporter | E. coli | PhoQ-PhoP variant library, added: 10 µM Mg2+ | baseline: high Mg2+ state, higher = stronger signaling | fold induction | 4.02

For quick reference, copied from above (sample 3):
Strand | fluorescence intensity [a.u.]
GAATATAATTGACAGCACGAGGAGAAACAAAATTAG | 817
CTAGTTCTTGGGCACCTGATCTCAAATTGCAAGTTC | 3910
CCTAACTACTATAGTCATCTGACATAGCTTCGTACA | 1430
